Results collected from several papers.
Every numbered part comes from another study and shows a few of its results, in no order. Values joined by “and” are separate records of one study, mostly repeats; a detail may differ.
UniProt Q9HBY8, sequence (whole entry, looked up): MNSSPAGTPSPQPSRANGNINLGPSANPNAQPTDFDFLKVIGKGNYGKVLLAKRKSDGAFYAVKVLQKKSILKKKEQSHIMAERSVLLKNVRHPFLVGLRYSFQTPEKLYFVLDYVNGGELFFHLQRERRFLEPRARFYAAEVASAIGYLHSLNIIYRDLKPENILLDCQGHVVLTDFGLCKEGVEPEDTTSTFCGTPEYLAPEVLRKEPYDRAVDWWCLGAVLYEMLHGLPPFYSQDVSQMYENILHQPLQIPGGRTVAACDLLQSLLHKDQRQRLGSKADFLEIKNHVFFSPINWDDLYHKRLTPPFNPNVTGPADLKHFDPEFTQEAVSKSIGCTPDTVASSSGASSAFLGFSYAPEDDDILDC
UniProt Q96Q40, sequence (whole entry, looked up): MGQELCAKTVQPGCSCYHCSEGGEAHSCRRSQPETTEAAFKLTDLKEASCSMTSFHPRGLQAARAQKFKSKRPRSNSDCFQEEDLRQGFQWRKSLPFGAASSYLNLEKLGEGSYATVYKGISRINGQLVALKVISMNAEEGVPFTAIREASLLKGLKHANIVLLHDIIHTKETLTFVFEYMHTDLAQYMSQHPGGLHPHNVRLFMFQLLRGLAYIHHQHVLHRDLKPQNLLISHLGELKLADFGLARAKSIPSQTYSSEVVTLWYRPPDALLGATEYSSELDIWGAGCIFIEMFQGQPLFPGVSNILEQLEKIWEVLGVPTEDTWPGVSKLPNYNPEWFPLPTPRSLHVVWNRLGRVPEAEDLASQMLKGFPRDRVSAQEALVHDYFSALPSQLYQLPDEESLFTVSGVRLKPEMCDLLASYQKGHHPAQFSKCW
UniProt Q8N752, sequence (whole entry, looked up): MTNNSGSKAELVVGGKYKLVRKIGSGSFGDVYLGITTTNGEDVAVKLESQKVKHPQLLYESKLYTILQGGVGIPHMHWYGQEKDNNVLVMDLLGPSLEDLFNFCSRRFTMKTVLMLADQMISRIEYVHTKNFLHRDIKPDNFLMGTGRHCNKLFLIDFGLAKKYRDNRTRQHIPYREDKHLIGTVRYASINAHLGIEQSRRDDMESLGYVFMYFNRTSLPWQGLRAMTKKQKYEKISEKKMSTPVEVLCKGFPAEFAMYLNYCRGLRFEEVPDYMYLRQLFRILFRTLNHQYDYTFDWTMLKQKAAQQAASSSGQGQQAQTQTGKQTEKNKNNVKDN

Block 1
SMILES: C[C@@H]1CN(c2ccc(-c3cc(C(=O)NCCOCCOCCOCCOCCOCCOCCNC(=O)/C=C/c4[nH]cc(C(=O)N[C@@H](CC(N)=O)c5ccc(F)c(Cl)c5)c4-c4ccc(Cl)cc4F)ccc3F)cc2NC(=O)c2ccc(F)cc2C(F)(F)F)C[C@H](C)N1C
Observed: thermal unfolding
Method: differential scanning fluorimetry
Concentration: 5.5 µM
Direction: higher = more unfolded
DCAF1: DDB1- and CUL4-associated factor 1 (DCAF1, Homo sapiens, UniProt Q9Y4B6)
UniProt Q9Y4B6, sequence (whole entry, looked up): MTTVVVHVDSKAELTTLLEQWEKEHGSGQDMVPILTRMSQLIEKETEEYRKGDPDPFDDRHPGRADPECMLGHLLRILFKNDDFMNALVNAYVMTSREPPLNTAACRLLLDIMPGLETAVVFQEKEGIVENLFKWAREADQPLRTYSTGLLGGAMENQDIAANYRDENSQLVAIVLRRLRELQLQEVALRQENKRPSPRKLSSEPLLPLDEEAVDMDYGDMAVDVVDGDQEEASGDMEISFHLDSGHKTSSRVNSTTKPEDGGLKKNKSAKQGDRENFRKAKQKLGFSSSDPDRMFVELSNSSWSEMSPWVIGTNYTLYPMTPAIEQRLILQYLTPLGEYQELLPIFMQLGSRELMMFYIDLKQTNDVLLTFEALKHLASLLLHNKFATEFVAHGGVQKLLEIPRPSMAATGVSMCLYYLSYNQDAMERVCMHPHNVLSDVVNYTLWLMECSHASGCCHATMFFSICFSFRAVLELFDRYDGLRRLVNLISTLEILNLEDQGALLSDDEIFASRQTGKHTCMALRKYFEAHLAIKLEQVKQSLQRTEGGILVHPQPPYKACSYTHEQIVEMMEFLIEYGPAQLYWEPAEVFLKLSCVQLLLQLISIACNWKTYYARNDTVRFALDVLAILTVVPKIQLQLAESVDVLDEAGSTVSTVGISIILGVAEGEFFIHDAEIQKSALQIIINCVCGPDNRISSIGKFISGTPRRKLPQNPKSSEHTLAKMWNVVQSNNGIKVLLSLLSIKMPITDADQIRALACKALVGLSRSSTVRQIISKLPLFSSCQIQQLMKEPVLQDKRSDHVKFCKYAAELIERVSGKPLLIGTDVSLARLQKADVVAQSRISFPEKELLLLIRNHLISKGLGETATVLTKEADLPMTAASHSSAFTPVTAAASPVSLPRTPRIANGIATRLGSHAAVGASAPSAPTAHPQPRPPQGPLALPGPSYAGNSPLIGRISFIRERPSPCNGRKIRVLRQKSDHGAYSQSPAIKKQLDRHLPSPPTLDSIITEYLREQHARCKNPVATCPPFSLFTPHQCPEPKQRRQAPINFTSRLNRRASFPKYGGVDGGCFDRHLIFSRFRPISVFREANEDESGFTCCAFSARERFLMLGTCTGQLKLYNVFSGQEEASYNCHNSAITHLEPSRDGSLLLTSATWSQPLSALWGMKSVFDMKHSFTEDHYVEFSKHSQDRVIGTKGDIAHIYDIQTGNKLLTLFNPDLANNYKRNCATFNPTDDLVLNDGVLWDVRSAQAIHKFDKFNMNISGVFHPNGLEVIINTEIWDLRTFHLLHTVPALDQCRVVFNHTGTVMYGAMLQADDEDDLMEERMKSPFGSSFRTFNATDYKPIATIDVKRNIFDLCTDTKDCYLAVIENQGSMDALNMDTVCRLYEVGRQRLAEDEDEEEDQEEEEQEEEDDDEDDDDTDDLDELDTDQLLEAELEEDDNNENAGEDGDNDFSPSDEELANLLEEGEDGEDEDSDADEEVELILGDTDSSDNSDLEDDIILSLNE
WDR5: WD repeat-containing protein 5 (WDR5, Homo sapiens, UniProt P61964)
DCAF1; 33.2 °C — “SYPRO Orange fluorescence”: 9330 a.u.
For WDR5; 76.01 °C: “SYPRO Orange fluorescence” read 52900 a.u.
WDR5; 86.41 °C — “SYPRO Orange fluorescence”: 60100 a.u.
DCAF1; 57.61 °C — “SYPRO Orange fluorescence”: 36800 a.u.
The “SYPRO Orange fluorescence” was 16400 a.u. (DCAF1; 47.8 °C).
The “SYPRO Orange fluorescence” was 14600 a.u. (WDR5; 43 °C).
The “SYPRO Orange fluorescence” was 30400 a.u. (DCAF1; 56.01 °C).
DCAF1; 58.61 °C — “SYPRO Orange fluorescence”: 41300 a.u.
For WDR5; 49.2 °C: “SYPRO Orange fluorescence” read 16000 a.u.
For DCAF1; 82.21 °C: “SYPRO Orange fluorescence” read 38400 a.u.
The “SYPRO Orange fluorescence” was 29600 a.u. (WDR5; 70.61 °C).

Block 2
Target: E3 ubiquitin-protein ligase NEDD4, HECT domain (Homo sapiens, UniProt P46934)
Observed: enzyme activity
Mode: inhibitor
Method: Ub-TR-FRET
Matrix: HECT domain
Concentration: 11.11 µM
Direction: higher = more chain formation
Construct (P46934 938-1319, limits assumed): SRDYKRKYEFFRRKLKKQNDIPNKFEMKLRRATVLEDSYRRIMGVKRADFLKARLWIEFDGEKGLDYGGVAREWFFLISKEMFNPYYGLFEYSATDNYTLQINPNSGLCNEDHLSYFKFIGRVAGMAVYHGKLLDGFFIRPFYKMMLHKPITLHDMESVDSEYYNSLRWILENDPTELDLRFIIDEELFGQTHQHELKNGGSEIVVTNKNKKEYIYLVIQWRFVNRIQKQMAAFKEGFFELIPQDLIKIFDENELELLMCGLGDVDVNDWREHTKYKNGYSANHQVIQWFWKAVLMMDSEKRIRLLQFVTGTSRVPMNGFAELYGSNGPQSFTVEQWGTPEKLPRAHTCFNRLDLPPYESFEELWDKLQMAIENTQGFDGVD
`CC(C)ONC(=O)/C=C/CNCCCCN1c2ccccc2CCc2ccc(Cl)cc21.O=C(O)/C=C\C(=O)O`: “ubiquitin chain formation AUC” 5040 a.u. and 5120 a.u. and 5420 a.u. and 5340 a.u. and 5060 a.u. and 5280 a.u.
`COC(=O)CCCNCCCN1c2ccccc2CCc2ccc(Cl)cc21.COC(=O)CCCNCCCN1c2ccccc2CCc2ccc(Cl)cc21.O=C(O)/C=C/C(=O)O`: “ubiquitin chain formation AUC” 116000 a.u. and 118000 a.u. and 113000 a.u.
Under “ubiquitin chain formation AUC”, `CONC(=O)/C=C/CNCCCCN1c2ccccc2CCc2ccc(Cl)cc21.O=C(O)/C=C\C(=O)O` is recorded as 5790 a.u. and 6920 a.u. and 6640 a.u. and 5930 a.u. and 5350 a.u. and 6860 a.u.
`N#C/C=C/CNCCCCN1c2ccccc2CCc2ccc(Cl)cc21.O=C(O)/C=C\C(=O)O` — result for “ubiquitin chain formation AUC”: 11500 a.u. and 9920 a.u. and 10600 a.u. and 9980 a.u. and 10900 a.u. and 10400 a.u.
`CN(C)C/C=C/C(=O)NCCCN1c2ccccc2CCc2ccc(Cl)cc21` — result for “ubiquitin chain formation AUC”: 114000 a.u. and 112000 a.u. and 117000 a.u.
`CNCCCN1c2ccccc2CCc2ccc(Cl)cc21`: “ubiquitin chain formation AUC” 133000 a.u. and 131000 a.u.
For `CCOC(=O)/C=C/CNCCCCN1c2cc(Cl)ccc2COc2ccccc21.O=C(O)/C=C\C(=O)O`, “ubiquitin chain formation AUC” read 11100 a.u. and 10900 a.u.

Block 3
Target: Cyclin-dependent kinase 12, with cyclin K (CDK12, Homo sapiens, UniProt Q9NYV4)
UniProt Q9NYV4, sequence (whole entry, looked up): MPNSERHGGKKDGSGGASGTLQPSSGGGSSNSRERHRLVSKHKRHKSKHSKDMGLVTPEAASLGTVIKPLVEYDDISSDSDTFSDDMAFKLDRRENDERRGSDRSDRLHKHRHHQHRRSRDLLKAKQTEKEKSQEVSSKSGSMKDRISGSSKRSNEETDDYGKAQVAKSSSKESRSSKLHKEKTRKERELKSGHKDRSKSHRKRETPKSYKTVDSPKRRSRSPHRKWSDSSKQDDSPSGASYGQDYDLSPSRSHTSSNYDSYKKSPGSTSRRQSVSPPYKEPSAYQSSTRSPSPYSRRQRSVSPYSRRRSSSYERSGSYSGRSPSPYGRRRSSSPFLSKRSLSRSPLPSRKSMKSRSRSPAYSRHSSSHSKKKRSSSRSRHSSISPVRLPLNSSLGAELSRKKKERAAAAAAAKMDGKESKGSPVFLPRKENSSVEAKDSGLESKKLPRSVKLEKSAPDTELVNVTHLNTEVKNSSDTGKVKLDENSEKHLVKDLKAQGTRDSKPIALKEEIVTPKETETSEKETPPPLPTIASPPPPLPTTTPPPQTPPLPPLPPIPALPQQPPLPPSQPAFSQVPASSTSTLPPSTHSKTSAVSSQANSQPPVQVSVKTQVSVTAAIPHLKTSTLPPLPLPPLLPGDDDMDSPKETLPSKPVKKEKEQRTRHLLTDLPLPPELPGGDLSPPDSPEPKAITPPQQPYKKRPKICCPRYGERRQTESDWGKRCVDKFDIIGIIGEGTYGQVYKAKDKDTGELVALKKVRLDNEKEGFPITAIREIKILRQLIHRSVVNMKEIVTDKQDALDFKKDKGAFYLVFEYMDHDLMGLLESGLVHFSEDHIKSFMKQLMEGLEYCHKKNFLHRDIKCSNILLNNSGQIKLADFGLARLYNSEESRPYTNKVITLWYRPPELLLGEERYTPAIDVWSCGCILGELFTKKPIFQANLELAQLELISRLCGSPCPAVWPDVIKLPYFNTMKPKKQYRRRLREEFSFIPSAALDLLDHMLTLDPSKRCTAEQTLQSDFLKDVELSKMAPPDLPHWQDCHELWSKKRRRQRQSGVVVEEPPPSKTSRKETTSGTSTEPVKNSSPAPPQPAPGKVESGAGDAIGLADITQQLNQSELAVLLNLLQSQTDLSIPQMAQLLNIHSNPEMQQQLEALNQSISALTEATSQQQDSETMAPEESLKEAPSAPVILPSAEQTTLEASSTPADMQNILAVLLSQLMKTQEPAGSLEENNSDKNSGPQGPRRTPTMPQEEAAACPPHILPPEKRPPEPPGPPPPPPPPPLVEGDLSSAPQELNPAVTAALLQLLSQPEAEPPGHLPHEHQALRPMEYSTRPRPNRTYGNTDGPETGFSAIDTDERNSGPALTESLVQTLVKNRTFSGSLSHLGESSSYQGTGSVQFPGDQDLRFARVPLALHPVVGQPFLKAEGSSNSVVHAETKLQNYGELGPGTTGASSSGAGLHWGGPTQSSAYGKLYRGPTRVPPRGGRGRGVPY
Observed: kinase activity
Mode: inhibitor
Method: ADP-Glo
Concentration: 0.0001 µM
For `CCn1cnc2c(NCc3nc4cc(Cl)c(Cl)cc4[nH]3)nc(N3CCN(Cc4ccncc4)CC3)nc21`, the inhibition was -6.7%.
The inhibition of `CCn1cnc2c(NCc3nc4cc(Cl)c(Cl)cc4[nH]3)nc(N3CCN(C(=O)[C@H](C)NC(C)=O)CC3)nc21` is reported as -17%.
With `CC(=O)N1CCN(c2nc(NCc3nc4cc(Cl)c(Cl)cc4[nH]3)c3ncn(-c4cnn(C)c4)c3n2)CC1` the inhibition was -2.1%.
For `CCn1cnc2c(NCc3nc4cc(Cl)c(Cl)cc4[nH]3)nc(N3CCN(C(=O)c4cccnc4)CC3)nc21`, the inhibition was -17.5%.
The inhibition of `CCn1cnc2c(NCc3nc4cc(Cl)c(Cl)cc4[nH]3)nc(N3CCC(NC(C)=O)CC3)nc21` is reported as 1.8%.
With `CC(=O)N1CCN(c2nc(NCc3nc4cc(Cl)c(Cl)cc4[nH]3)c3ncn(C)c3n2)CC1` the inhibition was -3.9%.
For `CCn1cnc2c(NCc3nc4ccc(F)c(F)c4[nH]3)nc(N3CCn4ncnc4C3)nc21`, the inhibition was 12.3%.
The inhibition of `Cn1cc(-n2cnc3c(NCc4nc5cc(Cl)c(Cl)cc5[nH]4)nc(N4CCNCC4)nc32)cn1` is reported as -6.8%.
`CCn1cnc2c(NCc3nc4cc(Cl)c(Cl)cc4[nH]3)nc(N3CCN(C(=O)c4ccccn4)CC3)nc21` gave an inhibition of -5.7%.
`CC(=O)N1CCN(c2nc(NCc3nc4cc(Cl)c(Cl)cc4[nH]3)c3ncn(C(C)C)c3n2)CC1` gave an inhibition of 2.1%.

Block 4
Compound: C=CC(=O)N1CCN(c2nc(OC[C@@H]3CCCN3C)nc3c2CCN(c2cccc4cccc(C)c24)C3)C[C@@H]1CC#N
Observed: binding
Mode: competitor
Method: NanoBRET
Cell line: HEK293
KRAS Q61H: GTPase KRas (KRAS, Homo sapiens, UniProt P01116, Q61H)
KRAS Q61L: GTPase KRas (KRAS, Homo sapiens, UniProt P01116, Q61L)
HRAS: GTPase HRas (HRAS, Homo sapiens, UniProt P01112)
For KRAS Q61H; 741 nM: normalized BRET read 49.5% and 61.9% and 44.6%.
It gave 95.7% and 97.4% and 95.2% for normalized BRET (KRAS Q61H; 9.14 nM).
The normalized BRET was 47.5% and 42.3% and 40.7% (KRAS Q61L; 2.22 µM).
For GTPase KRas (KRAS, Homo sapiens, UniProt P01116, G12D); 2.44 nM: normalized BRET read 114%.
For HRAS; 1.02 nM: normalized BRET read 96% and 97.1%.
For GTPase KRas (KRAS, Homo sapiens, UniProt P01116, Q61R); 741 nM: normalized BRET read 98.1% and 81.3% and 102%.
For GTPase KRas (KRAS, Homo sapiens, UniProt P01116, G13D); 9.14 nM: normalized BRET read 97.5% and 87.6% and 92.6%.
The normalized BRET was 16.2% and 20.3% and 24.3% (KRAS Q61H; 6.67 µM).
It gave 107% for normalized BRET (HRAS; 2.44 nM).
For KRAS Q61L; 247 nM: normalized BRET read 83.6% and 82.8% and 80.7%.

Block 5
Structure (SMILES): Cc1ccc(O)c(C)c1-c1cnc2[nH]c(-c3cnc(N4CCC5(CC4)CC(N4CCN(c6ccc(N[C@H]7CCC(=O)NC7=O)cc6F)CC4)CO5)nc3)cc2c1C#N (single isomer, unassigned)
CRBN: Protein cereblon (CRBN, Homo sapiens, UniProt Q96SW2)
UniProt Q96SW2, sequence (whole entry, looked up): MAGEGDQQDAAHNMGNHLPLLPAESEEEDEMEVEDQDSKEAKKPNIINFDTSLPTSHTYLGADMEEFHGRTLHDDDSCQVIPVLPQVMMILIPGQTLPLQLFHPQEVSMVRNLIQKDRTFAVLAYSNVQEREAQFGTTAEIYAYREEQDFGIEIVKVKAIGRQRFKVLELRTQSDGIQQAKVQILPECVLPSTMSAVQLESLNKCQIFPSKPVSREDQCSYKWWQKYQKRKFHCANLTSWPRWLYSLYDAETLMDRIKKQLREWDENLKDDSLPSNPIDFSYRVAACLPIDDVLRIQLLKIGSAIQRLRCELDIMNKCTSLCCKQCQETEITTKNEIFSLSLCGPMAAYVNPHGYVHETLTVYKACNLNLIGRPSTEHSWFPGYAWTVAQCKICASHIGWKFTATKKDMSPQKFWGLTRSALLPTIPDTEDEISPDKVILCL
PKMYT1: Membrane-associated tyrosine- and threonine-specific cdc2-inhibitory kinase (PKMYT1, Homo sapiens, UniProt Q99640)
UniProt Q99640, sequence (whole entry, looked up): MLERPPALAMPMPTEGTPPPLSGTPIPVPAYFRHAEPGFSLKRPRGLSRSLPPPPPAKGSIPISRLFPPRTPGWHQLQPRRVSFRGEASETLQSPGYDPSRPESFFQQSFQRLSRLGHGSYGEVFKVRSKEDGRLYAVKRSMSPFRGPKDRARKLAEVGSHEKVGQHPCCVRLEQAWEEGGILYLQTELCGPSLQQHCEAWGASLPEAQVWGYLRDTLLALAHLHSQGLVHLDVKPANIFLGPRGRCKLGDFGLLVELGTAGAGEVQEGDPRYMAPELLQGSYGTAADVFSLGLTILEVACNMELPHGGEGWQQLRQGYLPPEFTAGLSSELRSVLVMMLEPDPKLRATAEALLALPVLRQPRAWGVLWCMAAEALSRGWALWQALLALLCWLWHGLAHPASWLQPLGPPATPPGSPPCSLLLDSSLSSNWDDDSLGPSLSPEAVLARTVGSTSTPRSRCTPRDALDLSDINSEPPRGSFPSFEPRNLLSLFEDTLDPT
For HuCCT-1; cell proliferation; 41.15 nM: inhibition read 8.64% and 10.6% and 4.55%.
For NCI-H1648; cell proliferation; 4.572 nM: inhibition read -15.2% and -12.1% and -5.6%.
For CRBN; binding; 10000 nM: inhibition read 58.1% and 74.5%.
PKMYT1; 0.3333 µM — inhibition: 98.3%.
The inhibition was 49.8% and 41.1% (CRBN; binding; 3333.33 nM).
HCC1569; automated capillary immunoblot, refers to: CDK1 phospho-Thr14; 1 nM, 2 h — inhibition: -5.37%.
It gave 81.4% and 82% for inhibition (PKMYT1; binding, HTRF; 13.72 nM).
HCC1569; automated capillary immunoblot, refers to: CDK1 phospho-Thr14; 100 nM, 2 h — inhibition: 36%.
U-251 MG; cell growth; 10000 nM — inhibition: 89%.
For PKMYT1; enzyme activity, inhibitor; 4.12 nM: inhibition read 32.6%.

Block 6
Structure (SMILES): CCN1/C(=C/C=C2\CCCC(/C=C/C3=[N+](CC)c4ccccc4C3(C)C)=C2NCCCCCCCCN2CCC(Nc3nc4ccccc4n3Cc3ccc(F)cc3)CC2)C(C)(C)c2ccccc21
Cell line: U-87 MG
Concentration: concentration not given
Baseline: DMSO
The “log2 fold change” was -1.68 (refers to: CCNE2 mRNA).
The “log2 fold change” was -0.958 (refers to: SLC25A13 mRNA).
For refers to: SP6 mRNA: “log2 fold change” read -1.03.
It gave 1.19 for “log2 fold change” (refers to: ACSL1 mRNA).
For refers to: CDC25B mRNA: “log2 fold change” read -1.9.
The “log2 fold change” was -1.59 (refers to: VANGL1 mRNA).
The “log2 fold change” was -0.935 (refers to: ZIC1 mRNA).
For refers to: OLIG2 mRNA: “log2 fold change” read 2.23.
It gave -0.979 for “log2 fold change” (refers to: DUSP4 mRNA).
It gave -1.53 for “log2 fold change” (refers to: ZNF341 mRNA).
For refers to: CORO2B mRNA: “log2 fold change” read 0.821.
refers to: CORO6 mRNA — “log2 fold change”: -1.42.

Block 7
Structure (SMILES): CC[C@@]1(c2ccccc2)C2=C(CC(C)(C)CC2=O)Nc2n[nH]cc21
Concentration: 1 µM
It gave 100% for remaining binding (NEK4 (Homo sapiens, UniProt P51957); kinase binding, KINOMEscan; baseline: DMSO control).
For PDGFRB (Homo sapiens, UniProt P09619); kinase binding, KINOMEscan; baseline: DMSO control: remaining binding read 100%.
It gave 67% for remaining binding (MTOR (Homo sapiens, UniProt P42345); binding, competition with immobilised ligand).
It gave 96% for remaining binding (MAP4K3 (Homo sapiens, UniProt Q8IVH8); kinase binding, KINOMEscan; baseline: DMSO control).
It gave 100% for remaining binding (PAK6 (Homo sapiens, UniProt Q9NQU5); binding, competition with immobilised ligand).
The remaining binding was 100% (CDK19 (Homo sapiens, UniProt Q9BWU1); KINOMEscan).
FLT3 (Homo sapiens, UniProt P36888, D835Y); binding, competition with immobilised ligand — remaining binding: 100%.
It gave 76% for remaining binding (PIK3CA (Homo sapiens, UniProt P42336, C420R); binding, competition with immobilised ligand).
The remaining binding was 100% (SIK1 (Homo sapiens, UniProt P57059); KINOMEscan).
It gave 100% for remaining binding (CSNK1A1L (Homo sapiens, UniProt Q8N752); binding, competition with immobilised ligand).
It gave 64% for remaining binding (KIT (Homo sapiens, UniProt P10721, L576P); binding, competition with immobilised ligand).
It gave 100% for remaining binding (CDK15 (Homo sapiens, UniProt Q96Q40); kinase binding, KINOMEscan; baseline: DMSO control).
It gave 100% for remaining binding (EPHB4 (Homo sapiens, UniProt P54760); binding, competition with immobilised ligand).
It gave 76% for remaining binding (Tyrosine-protein kinase JAK2, JH1 (JAK2, Homo sapiens, UniProt O60674); binding, competition with immobilised ligand).
LATS1 (Homo sapiens, UniProt O95835); binding, competition with immobilised ligand — remaining binding: 93%.
For EGFR (Homo sapiens, UniProt P00533, L858R/T790M); binding, competition with immobilised ligand: remaining binding read 100%.
The remaining binding was 91% (PIP4K2C (Homo sapiens, UniProt Q8TBX8); binding, competition with immobilised ligand).
The remaining binding was 96% (SGK2 (Homo sapiens, UniProt Q9HBY8); kinase binding, KINOMEscan; baseline: DMSO control).
